# Experimental data collected from several papers.
# The chains behind the UniProt entries cited, without tags or fusion partners. A line that says so, or that is headed by a name, gives the form on record, which may keep a tag or linker. Residues count along the entry.
# UniProt Q9JKC1, 24-597 limits assumed: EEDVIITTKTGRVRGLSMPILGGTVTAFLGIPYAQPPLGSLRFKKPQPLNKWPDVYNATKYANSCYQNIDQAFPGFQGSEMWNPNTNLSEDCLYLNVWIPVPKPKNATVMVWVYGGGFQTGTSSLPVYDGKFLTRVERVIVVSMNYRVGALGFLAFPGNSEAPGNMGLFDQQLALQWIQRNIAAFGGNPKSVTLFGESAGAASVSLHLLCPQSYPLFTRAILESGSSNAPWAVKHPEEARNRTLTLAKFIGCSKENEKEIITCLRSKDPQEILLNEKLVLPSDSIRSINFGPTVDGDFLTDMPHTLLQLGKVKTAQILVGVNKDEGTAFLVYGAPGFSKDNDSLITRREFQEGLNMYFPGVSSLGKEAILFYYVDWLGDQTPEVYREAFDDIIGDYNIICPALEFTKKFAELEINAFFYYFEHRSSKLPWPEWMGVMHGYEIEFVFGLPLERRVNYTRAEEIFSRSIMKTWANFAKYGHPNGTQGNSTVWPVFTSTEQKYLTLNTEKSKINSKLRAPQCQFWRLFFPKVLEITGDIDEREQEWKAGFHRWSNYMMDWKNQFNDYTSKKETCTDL
# UniProt P08510, 1-655 with tags or gaps DEL6-46: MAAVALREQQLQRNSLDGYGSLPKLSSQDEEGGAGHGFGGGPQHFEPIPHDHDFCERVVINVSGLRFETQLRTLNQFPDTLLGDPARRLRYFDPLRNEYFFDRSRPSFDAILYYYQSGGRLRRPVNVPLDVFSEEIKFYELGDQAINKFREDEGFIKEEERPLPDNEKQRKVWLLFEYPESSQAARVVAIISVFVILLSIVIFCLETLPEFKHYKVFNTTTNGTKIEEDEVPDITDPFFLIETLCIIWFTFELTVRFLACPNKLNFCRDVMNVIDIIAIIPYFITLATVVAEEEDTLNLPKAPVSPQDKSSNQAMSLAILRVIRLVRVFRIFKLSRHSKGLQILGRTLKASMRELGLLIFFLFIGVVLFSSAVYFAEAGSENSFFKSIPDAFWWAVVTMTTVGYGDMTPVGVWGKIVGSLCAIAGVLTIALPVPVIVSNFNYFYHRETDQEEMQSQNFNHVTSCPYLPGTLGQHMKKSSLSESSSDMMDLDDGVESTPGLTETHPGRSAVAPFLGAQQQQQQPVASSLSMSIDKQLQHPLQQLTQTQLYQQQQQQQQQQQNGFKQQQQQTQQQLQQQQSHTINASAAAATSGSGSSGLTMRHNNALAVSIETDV
# “And” joins repeats or separate records; there may be more than shown. Numbers after ± are the reported error.
Structure (SMILES),tested on,assay,test system,setting,scale,endpoint,value
CC#Cc1ccc2c(=O)[nH]nc(Cc3ccc(F)c(C(=O)N4CCN(c5ccc(C#N)cn5)CC4)c3)c2c1,CT26,"western blot, item: PARP7 protein",,0.3 µM,,time to maximum,~16 h
O=C(NC1CCN(c2ncnc3[nH]cnc23)CC1)c1cccc(S(=O)(=O)Nc2ccc(Cl)cc2)c1,SARS-CoV-2,,Wuhan-Hu-1,2.469 µM,relative to: untreated infected cells,relative infection,36.8%
O=[N+]([O-])c1cc([As](O)O)ccc1O,MCF-12A,cell viability,,72 h,,IC50,5600 nM
CC[C@H](C)[C@H](NC(=O)[C@H](C)NC(=O)[C@H](CCC(=O)O)NC(=O)[C@H](CCC(=O)O)NC(=O)[C@H](CC(C)C)NC(=O)[C@H](CCCCN)NC(=O)[C@H](CCCCN)NC(=O)[C@H](CCSC)NC(=O)[C@H](CCC(=O)O)NC(=O)[C@H](Cc1ccc(O)cc1)NC(=O)[C@H](CCC(=O)O)NC(=O)[C@H](CC(C)C)NC(=O)[C@H](CC(=O)O)NC(=O)[C@H](CC(C)C)NC(=O)[C@H](Cc1ccccc1)NC(=O)[C@H](Cc1ccccc1)NC(=O)[C@@H](NC(=O)[C@H](CC(N)=O)NC(=O)[C@@H](NC(=O)[C@H](CCC(N)=O)NC(=O)[C@H](CC(=O)O)NC(=O)[C@H](CC(C)C)NC(=O)[C@@H](N)CO)[C@@H](C)CC)C(C)C)C(=O)N[C@@H](CCCCN)C(=O)N[C@@H](CCCCN)C(=O)N[C@@H](CC(C)C)C(=O)N[C@@H](CCC(=O)O)C(=O)N[C@@H](CCC(=O)O)C(=O)N[C@@H](CO)C(=O)N[C@@H](Cc1ccc(O)cc1)C(=O)N[C@H](C(=O)N[C@@H](CC(=O)O)C(=O)N[C@@H](CC(C)C)C(=O)N[C@@H](CCCCN)C(=O)N[C@@H](CCC(=O)O)C(=O)N[C@@H](CC(C)C)C(=O)O)[C@@H](C)CC,SARS-CoV-2 Gamma pseudovirus,"pseudovirus infection, inhibitor, luciferase",Caco-2,24 h,,IC50,615 nM
CC1=C[C@@H](CN2CCN(c3ncccn3)CC2)[C@H](C(C)C)C[C@H]1Cc1nnc(Cc2c[nH]c3ccccc23)o1,SARS-CoV-2 nsp5 C145A,"reporter gene, cell-based secondary screen",,,,luciferase signal,110 ± 9.1%
CCOP(=O)(OCC)ON1C(=O)c2cccc3cccc(c23)C1=O,"Butyrylcholinesterase (Bche, Rattus norvegicus, UniProt Q9JKC1)",inhibitor,"rat, postnatal day 12, rat serum",,,IC50,7 nM
C[C@@H](O)[C@@H]1NC(=O)[C@@H]2CSSC[C@H](N)C(=O)N[C@@H](CCCCN)C(=O)N[C@@H](CCCNC(=N)N)C(=O)N[C@@H](CCCCN)C(=O)NCC(=O)N[C@@H](CO)C(=O)N[C@@H](CO)C(=O)N[C@H]3CSSC[C@H](NC(=O)[C@H](CO)NC(=O)CNC1=O)C(=O)N[C@@H](CCCNC(=N)N)C(=O)N[C@@H](CC(N)=O)C(=O)NCC(=O)N[C@@H](CCCCN)C(=O)N[C@H](C(N)=O)CSSC[C@H](NC(=O)[C@H](CC(=O)O)NC(=O)[C@H](Cc1ccc(O)cc1)NC(=O)[C@H](CO)NC(=O)[C@H]([C@@H](C)O)NC(=O)[C@H](CCCNC(=N)N)NC(=O)[C@H](CCCNC(=N)N)NC3=O)C(=O)N2,,,Kunming mice,"intracerebroventricular, 9 µg/kg, 0.5 h",,rotarod time,17 ± 19 s
O=C(Nc1cc(F)cc(F)c1)N1CCCC2(C1)Nc1cccnc1N=C2NC1CCCC1 (centres unmarked),HEK293,"cell viability, CellTiter-Glo",,72 h,,CC50,> 70000 nM
Cc1ccc(S(=O)(=O)Nc2cccc(C(=O)NC3CCN(c4ncnc5[nH]cnc45)CC3)c2)cc1,monkeypox virus E1/E12,,,200 µM,,inhibition,16.6% and 25.7%
CCN(CC)Cc1onc(-c2cccc(Cl)c2)c1-c1ccnc(N[C@@H]2CCN(C(=O)c3ccn(C)n3)C2)n1,Plasmodium falciparum,parasite growth,3D7 A10,"72 h, asexual blood stage",,EC50,4790 ± 210 nM
CC[C@H](C)[C@H](NC(=O)[C@H](C)NC(=O)[C@H](CCC(=O)O)NC(=O)[C@H](CCC(=O)O)NC(=O)[C@H](CC(C)C)NC(=O)[C@H](CCCCN)NC(=O)[C@H](CCCCN)NC(=O)[C@H](CCSC)NC(=O)[C@H](CCC(=O)O)NC(=O)[C@H](Cc1ccc(O)cc1)NC(=O)[C@H](CCC(=O)O)NC(=O)[C@H](CC(C)C)NC(=O)[C@H](CC(=O)O)NC(=O)[C@H](CC(C)C)NC(=O)[C@H](Cc1ccccc1)NC(=O)[C@H](Cc1ccc(O)cc1)NC(=O)[C@@H](NC(=O)[C@H](CC(N)=O)NC(=O)[C@@H](NC(=O)[C@H](CCC(N)=O)NC(=O)[C@H](CC(=O)O)NC(=O)[C@H](CC(C)C)NC(=O)[C@@H](N)CO)[C@@H](C)CC)C(C)C)C(=O)N[C@@H](CCCCN)C(=O)N[C@@H](CCCCN)C(=O)N[C@@H](CC(C)C)C(=O)N[C@@H](CCC(=O)O)C(=O)N[C@@H](CCC(=O)O)C(=O)N[C@@H](CO)C(=O)N[C@@H](Cc1ccc(O)cc1)C(=O)N[C@H](C(=O)N[C@@H](CC(=O)O)C(=O)N[C@@H](CC(C)C)C(=O)N[C@@H](CCCCN)C(=O)N[C@@H](CCC(=O)O)C(=O)N[C@@H](CC(C)C)C(=O)O)[C@@H](C)CC,SARS-CoV-2 XBB.1.5 pseudovirus,"pseudovirus infection, inhibitor, luciferase",Caco-2,24 h,,IC50,185 nM
O=C(NC1CCN(c2ncnc3[nH]cnc23)CC1)c1cccc(NS(=O)(=O)c2ccc([N+](=O)[O-])cc2)c1,SARS-CoV-2,,Wuhan-Hu-1,0.03048 µM,relative to: untreated infected cells,relative infection,81.4%
CC(C)[C@H]1CC[C@@H](N2CCC3(CC2)C(=O)NCN3c2ccccc2)CC1,,twitch contraction,"mouse, mouse vas deferens",,relative to: compound over N/OFQ EC50,concentration ratio,1.7
CC[C@H](C)[C@H](NC(=O)[C@H](C)NC(=O)[C@H](CCC(=O)O)NC(=O)[C@H](CCC(=O)O)NC(=O)[C@H](CC(C)C)NC(=O)[C@H](CCCCN)NC(=O)[C@H](CCCCN)NC(=O)[C@H](CCSC)NC(=O)[C@H](CCC(=O)O)NC(=O)[C@H](Cc1ccc(O)cc1)NC(=O)[C@H](CCC(=O)O)NC(=O)[C@H](CC(C)C)NC(=O)[C@H](CC(=O)O)NC(=O)[C@H](CC(C)C)NC(=O)[C@H](Cc1ccccc1)NC(=O)[C@H](Cc1ccc(O)cc1)NC(=O)[C@@H](NC(=O)[C@H](CC(N)=O)NC(=O)[C@@H](NC(=O)[C@H](CCC(N)=O)NC(=O)[C@H](CC(=O)O)NC(=O)[C@H](CC(C)C)NC(=O)[C@@H](N)CO)[C@@H](C)CC)C(C)C)C(=O)N[C@@H](CCCCN)C(=O)N[C@@H](CCCCN)C(=O)N[C@@H](CC(C)C)C(=O)N[C@@H](CCC(=O)O)C(=O)N[C@@H](CCC(=O)O)C(=O)N[C@@H](C)C(=O)N[C@@H](Cc1ccc(O)cc1)C(=O)N[C@H](C(=O)N[C@@H](CC(=O)O)C(=O)N[C@@H](CC(C)C)C(=O)N[C@@H](CCCCN)C(=O)N[C@@H](CCC(=O)O)C(=O)N[C@@H](CC(C)C)C(=O)O)[C@@H](C)CC,SARS-CoV-2 Delta pseudovirus,"pseudovirus infection, inhibitor, luciferase",Caco-2,"24 h, dual mutations",,IC50,641 nM
CC[C@H](C)[C@@H]1NC(=O)[C@H](CCCNC(=N)N)NC(=O)[C@@H](N)CSSC[C@@H]2NC(=O)[C@@H]3CSSC[C@@H](C(=O)N[C@H](C(=O)O)C(C)C)NC(=O)[C@H](CCCCN)NC(=O)[C@H](CC(N)=O)NC(=O)[C@H](Cc4ccccc4)NC(=O)[C@H](CCCNC(=N)N)NC(=O)[C@H](CC(N)=O)NC(=O)[C@H](CSSC[C@H](NC(=O)[C@H](CCCCN)NC(=O)[C@H](CCC(N)=O)NC(=O)[C@H](CC(N)=O)NC(=O)[C@@H]4C[C@@H](O)CN4C1=O)C(=O)N[C@@H](Cc1ccccc1)C(=O)N[C@@H](CCC(N)=O)C(=O)N[C@@H](Cc1c[nH]cn1)C(=O)N[C@@H](CC(C)C)C(=O)N[C@@H](CC(=O)O)C(=O)N[C@@H](CC(=O)O)C(=O)N3)NC(=O)[C@H](CCCCN)NC(=O)[C@H](CCCNC(=N)N)NC(=O)[C@H](CO)NC2=O,"Sh (Drosophila melanogaster, UniProt P08510, del6-46)","potassium current, outside-out patch clamp",,"500 nM, pulse application, zero voltage, internal K 15, together with: 1 mM TEA",,koff,12 ± 1 s⁻¹
O=C(CCc1ccccc1)N1CCCC2(C1)Nc1cccnc1N=C2NC1CCCC1 (centres unmarked),HEK293,"cell viability, CellTiter-Glo",,72 h,,CC50,> 70000 nM
Cc1ccc(S(=O)(=O)Nc2cccc(C(=O)NC3CCN(c4ncnc5[nH]cnc45)CC3)c2)cc1Cl,SARS-CoV-2,,Wuhan-Hu-1,66.67 µM,relative to: untreated infected cells,relative infection,20%
Cc1cc(C(=O)N[C@@H](Cc2cccc3ccccc23)C(=O)N[C@@H](CC(C)C)C(=O)N[C@H](C=O)C[C@@H]2CCCNC2=O)no1,human rhinovirus 16,"cytopathic effect, SRB",MRC-5,3 days,,EC50,200 ± 200 nM
COc1ccc(S(=O)(=O)Nc2cccc(C(=O)NC3CCN(c4ncnc5[nH]cnc45)CC3)c2)cc1,SARS-CoV-2,,Wuhan-Hu-1,2.469 µM,relative to: untreated infected cells,relative infection,51.6%
CC[C@H](C)[C@H](NC(=O)[C@H](C)NC(=O)[C@H](CCC(=O)O)NC(=O)[C@H](CCC(=O)O)NC(=O)[C@H](CC(C)C)NC(=O)[C@H](CCCCN)NC(=O)[C@H](CCCCN)NC(=O)[C@H](CCSC)NC(=O)[C@H](CCC(=O)O)NC(=O)[C@H](Cc1ccc(O)cc1)NC(=O)[C@H](CCC(=O)O)NC(=O)[C@H](CC(C)C)NC(=O)[C@H](CC(=O)O)NC(=O)[C@H](CC(C)C)NC(=O)[C@H](Cc1ccccc1)NC(=O)[C@H](Cc1ccccc1)NC(=O)[C@@H](NC(=O)[C@H](CC(N)=O)NC(=O)[C@@H](NC(=O)[C@H](CCC(N)=O)NC(=O)[C@H](CC(=O)O)NC(=O)[C@H](CC(C)C)NC(=O)[C@@H](N)CO)[C@@H](C)CC)C(C)C)C(=O)N[C@@H](CCCCN)C(=O)N[C@@H](CCCCN)C(=O)N[C@@H](CC(C)C)C(=O)N[C@@H](CCC(=O)O)C(=O)N[C@@H](CCC(=O)O)C(=O)N[C@H](C(=O)N[C@@H](Cc1ccc(O)cc1)C(=O)N[C@H](C(=O)N[C@@H](CC(=O)O)C(=O)N[C@@H](CC(C)C)C(=O)N[C@@H](CCCCN)C(=O)N[C@@H](CCC(=O)O)C(=O)N[C@@H](CC(C)C)C(=O)O)[C@@H](C)CC)[C@@H](C)O,SARS-CoV-2 Alpha pseudovirus,"pseudovirus infection, inhibitor, luciferase",Caco-2,"24 h, dual mutations",,IC50,587 nM
